{"data": "Measurements gathered from unrelated publications", "note": "Compare with care: the assays were run in different laboratories.", "UniProt P04629, sequence (whole entry, looked up)": "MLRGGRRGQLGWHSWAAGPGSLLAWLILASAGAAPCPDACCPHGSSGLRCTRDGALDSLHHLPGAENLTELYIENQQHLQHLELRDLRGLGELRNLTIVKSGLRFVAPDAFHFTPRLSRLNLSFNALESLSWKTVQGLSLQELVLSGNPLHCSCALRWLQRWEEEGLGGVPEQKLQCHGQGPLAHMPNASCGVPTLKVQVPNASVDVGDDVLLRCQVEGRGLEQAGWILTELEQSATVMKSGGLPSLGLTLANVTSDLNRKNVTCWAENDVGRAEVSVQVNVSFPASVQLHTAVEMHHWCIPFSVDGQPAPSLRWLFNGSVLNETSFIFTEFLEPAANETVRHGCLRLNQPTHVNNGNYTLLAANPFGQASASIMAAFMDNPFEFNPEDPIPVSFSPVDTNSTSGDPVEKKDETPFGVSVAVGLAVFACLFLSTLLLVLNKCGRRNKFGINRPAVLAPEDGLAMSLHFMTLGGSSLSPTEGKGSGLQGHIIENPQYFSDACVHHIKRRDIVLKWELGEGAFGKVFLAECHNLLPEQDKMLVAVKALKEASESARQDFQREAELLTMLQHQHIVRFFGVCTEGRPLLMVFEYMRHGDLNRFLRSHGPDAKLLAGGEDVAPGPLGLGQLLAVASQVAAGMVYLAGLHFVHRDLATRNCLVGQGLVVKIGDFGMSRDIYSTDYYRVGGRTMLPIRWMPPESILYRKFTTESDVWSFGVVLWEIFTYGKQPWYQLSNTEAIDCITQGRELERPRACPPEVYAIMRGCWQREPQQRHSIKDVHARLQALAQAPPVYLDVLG", "UniProt Q15746, sequence (whole entry, looked up)": "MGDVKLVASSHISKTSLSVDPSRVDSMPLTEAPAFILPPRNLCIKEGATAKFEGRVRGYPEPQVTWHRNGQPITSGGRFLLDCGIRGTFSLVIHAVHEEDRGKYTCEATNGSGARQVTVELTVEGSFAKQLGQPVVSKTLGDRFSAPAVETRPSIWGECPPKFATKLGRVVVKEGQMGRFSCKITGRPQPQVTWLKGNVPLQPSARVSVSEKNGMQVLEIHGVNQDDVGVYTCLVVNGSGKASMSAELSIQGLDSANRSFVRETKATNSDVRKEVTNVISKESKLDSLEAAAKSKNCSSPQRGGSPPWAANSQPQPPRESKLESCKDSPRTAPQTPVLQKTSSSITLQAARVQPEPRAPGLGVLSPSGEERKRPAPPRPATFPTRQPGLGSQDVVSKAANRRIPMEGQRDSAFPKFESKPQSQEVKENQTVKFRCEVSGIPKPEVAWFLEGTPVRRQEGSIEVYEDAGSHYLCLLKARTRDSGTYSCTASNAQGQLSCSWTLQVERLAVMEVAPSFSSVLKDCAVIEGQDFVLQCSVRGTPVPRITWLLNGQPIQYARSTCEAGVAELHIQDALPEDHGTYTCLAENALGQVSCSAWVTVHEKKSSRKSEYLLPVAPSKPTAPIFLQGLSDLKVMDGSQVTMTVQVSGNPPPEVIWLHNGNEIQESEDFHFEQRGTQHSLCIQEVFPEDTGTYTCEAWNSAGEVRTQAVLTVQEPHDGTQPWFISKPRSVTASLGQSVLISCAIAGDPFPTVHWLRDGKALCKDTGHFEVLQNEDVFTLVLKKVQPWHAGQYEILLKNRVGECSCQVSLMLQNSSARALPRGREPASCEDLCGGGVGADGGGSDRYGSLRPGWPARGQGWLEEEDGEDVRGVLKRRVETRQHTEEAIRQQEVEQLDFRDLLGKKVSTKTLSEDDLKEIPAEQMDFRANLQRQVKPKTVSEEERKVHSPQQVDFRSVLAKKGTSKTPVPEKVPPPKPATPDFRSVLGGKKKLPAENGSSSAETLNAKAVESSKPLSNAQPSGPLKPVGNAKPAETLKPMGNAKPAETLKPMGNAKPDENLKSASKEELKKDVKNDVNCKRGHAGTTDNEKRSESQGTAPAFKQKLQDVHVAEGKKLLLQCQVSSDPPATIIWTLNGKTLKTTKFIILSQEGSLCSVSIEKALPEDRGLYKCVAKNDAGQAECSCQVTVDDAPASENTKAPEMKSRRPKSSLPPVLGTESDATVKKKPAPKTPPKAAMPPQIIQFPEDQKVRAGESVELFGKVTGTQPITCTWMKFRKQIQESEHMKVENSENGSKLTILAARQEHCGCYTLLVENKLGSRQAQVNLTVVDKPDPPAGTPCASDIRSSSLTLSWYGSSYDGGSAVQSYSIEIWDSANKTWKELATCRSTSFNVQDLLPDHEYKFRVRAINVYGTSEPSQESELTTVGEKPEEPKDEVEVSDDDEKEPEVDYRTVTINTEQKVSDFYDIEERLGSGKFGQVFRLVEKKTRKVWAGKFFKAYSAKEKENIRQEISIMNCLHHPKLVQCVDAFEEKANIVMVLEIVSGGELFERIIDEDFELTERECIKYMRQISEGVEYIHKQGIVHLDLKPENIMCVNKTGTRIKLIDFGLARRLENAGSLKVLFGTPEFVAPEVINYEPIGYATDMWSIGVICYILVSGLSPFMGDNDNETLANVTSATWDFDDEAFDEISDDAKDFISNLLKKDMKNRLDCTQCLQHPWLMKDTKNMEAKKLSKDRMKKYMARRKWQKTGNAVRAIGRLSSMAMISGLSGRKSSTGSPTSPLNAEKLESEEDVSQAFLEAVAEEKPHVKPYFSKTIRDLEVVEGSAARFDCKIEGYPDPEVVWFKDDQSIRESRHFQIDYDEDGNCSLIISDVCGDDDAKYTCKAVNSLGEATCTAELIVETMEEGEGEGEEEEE", "UniProt Q92626, sequence (whole entry, looked up)": "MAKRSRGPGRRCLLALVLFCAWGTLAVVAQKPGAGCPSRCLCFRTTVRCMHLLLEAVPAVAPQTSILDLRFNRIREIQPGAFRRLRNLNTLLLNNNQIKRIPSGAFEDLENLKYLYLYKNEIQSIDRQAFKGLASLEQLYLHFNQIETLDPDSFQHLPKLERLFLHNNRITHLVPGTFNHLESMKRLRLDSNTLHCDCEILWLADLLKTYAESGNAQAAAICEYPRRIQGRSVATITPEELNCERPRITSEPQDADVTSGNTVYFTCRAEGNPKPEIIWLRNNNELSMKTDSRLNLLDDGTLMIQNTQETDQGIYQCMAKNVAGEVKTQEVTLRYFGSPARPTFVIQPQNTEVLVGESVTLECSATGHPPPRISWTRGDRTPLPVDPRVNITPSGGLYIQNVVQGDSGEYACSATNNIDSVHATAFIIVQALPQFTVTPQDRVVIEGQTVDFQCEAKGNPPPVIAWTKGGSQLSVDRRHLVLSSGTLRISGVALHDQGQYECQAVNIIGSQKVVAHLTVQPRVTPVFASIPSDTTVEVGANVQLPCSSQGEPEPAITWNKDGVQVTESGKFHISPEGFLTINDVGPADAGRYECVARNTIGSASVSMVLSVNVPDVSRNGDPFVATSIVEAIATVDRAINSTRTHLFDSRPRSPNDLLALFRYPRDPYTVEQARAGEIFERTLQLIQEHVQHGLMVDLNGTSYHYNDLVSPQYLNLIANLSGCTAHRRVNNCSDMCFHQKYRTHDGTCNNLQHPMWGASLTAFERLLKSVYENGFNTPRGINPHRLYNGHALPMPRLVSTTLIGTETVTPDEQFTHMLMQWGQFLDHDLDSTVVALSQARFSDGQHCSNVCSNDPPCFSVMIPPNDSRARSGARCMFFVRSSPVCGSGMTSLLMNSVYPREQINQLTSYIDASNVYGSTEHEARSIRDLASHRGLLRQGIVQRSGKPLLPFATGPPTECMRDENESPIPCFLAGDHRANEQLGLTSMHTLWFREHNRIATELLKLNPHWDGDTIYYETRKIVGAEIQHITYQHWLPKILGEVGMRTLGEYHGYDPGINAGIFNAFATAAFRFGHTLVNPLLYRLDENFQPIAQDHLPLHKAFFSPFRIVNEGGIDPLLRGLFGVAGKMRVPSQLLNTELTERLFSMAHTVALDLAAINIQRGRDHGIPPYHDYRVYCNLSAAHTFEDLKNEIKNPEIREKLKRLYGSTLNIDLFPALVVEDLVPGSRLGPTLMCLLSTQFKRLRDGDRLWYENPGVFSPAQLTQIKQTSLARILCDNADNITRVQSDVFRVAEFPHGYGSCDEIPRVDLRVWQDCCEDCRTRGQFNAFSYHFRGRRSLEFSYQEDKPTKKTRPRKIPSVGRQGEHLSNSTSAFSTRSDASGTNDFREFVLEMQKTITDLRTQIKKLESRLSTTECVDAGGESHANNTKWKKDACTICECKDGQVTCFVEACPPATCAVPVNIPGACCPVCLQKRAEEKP", "UniProt Q15831, sequence (whole entry, looked up)": "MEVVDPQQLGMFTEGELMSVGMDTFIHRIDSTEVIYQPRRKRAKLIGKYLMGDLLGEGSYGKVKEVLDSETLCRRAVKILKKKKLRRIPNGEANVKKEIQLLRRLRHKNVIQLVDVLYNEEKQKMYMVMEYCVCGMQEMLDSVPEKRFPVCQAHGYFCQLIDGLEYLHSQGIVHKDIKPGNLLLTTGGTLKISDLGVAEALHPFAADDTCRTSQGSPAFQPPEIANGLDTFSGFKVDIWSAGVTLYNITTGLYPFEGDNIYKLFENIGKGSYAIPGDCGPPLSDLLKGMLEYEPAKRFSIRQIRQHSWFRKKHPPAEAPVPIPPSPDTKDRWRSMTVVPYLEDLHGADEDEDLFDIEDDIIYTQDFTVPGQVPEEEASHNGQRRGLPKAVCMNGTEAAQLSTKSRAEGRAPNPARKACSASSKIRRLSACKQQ", "UniProt P31749, sequence (whole entry, looked up)": "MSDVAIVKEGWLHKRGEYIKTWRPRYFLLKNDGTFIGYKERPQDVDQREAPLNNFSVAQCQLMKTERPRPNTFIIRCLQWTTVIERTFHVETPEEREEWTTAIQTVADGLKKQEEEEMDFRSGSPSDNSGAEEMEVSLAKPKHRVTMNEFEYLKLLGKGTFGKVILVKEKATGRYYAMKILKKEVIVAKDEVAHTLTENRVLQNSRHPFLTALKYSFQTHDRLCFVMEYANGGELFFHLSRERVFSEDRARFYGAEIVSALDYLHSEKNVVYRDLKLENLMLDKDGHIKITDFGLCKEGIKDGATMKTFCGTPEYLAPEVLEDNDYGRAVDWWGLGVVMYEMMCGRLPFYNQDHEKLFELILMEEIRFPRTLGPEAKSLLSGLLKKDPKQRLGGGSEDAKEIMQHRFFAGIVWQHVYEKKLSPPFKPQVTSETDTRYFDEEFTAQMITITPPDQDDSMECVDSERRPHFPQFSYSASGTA"}
{"SMILES": "COc1cc(Nc2ncc3c(n2)-c2ccc(Cl)cc2C(c2c(F)cccc2OC)=NC3)ccc1C(=O)O", "target or system": "STK22D", "assay": "kinase activity", "conditions": "1 µM", "measurement": "remaining activity", "result": "108%"}
{"SMILES": "NC/C(=C\\F)COc1cccc(Cn2c(=S)[nH]c(=O)c3[nH]cnc32)c1", "target or system": "Peroxidasin homolog (PXDN, Homo sapiens, UniProt Q92626)", "assay": "Amplex UltraRed", "conditions": "50 µM", "scale": "relative to: control", "measurement": "remaining activity", "result": "11.7%"}
{"SMILES": "O=C(O)c1ccc(Nc2ncc3c(n2)-c2ccc(Cl)cc2C(c2c(F)cccc2F)=NC3)cc1", "target or system": "Abl(m)", "assay": "kinase activity", "conditions": "1 µM", "measurement": "remaining activity", "result": "31%"}
{"SMILES": "O=C(NCCc1cccnc1)c1ccc([C@H]2[C@@H](F)[C@@H](F)C[C@@H](F)[C@H]2F)cc1", "assay": "liver microsome stability", "test system": "human liver microsomes", "conditions": "1 µM, without NADPH", "measurement": "hepatic clearance", "result": "3.9 mL/min/kg"}
{"SMILES": "COc1cc(F)ccc1-c1ncnc(Nc2cccc(C[S@](C)(=N)=O)c2)n1", "target or system": "PIK3CG (Homo sapiens, UniProt P48736)", "assay": "kinase activity", "conditions": "10 µM, added: ATP 10 µM", "measurement": "remaining activity", "result": "99%"}
{"SMILES": "C=CC(=O)N1CCC[C@@H](n2nc(-c3ccc(Oc4ccccc4)cc3)c3c(N)ncnc32)C1", "target or system": "MYLK (Homo sapiens, UniProt Q15746)", "conditions": "0.1 µM", "measurement": "remaining activity", "result": "88.9%"}
{"SMILES": "O=C1NC(=O)/C(=C/c2ccc(-c3ccc(F)cc3O)o2)S1", "target or system": "AKT1 (Homo sapiens, UniProt P31749)", "assay": "enzyme activity", "conditions": "10 µM", "measurement": "remaining activity", "result": "97%"}
{"SMILES": "Cc1cc(Nc2cc(N3CCN(C)CC3)nc(Sc3ccc(NC(=O)C4CC4)cc3)n2)[nH]n1", "target or system": "NTRK1 (Homo sapiens, UniProt P04629)", "assay": "kinase activity, KinaseProfiler", "conditions": "0.03 µM, species human", "scale": "relative to: control", "measurement": "remaining activity", "result": "20%"}
{"SMILES": "COc1cc(-c2cncc3c2CN(C)Cc2cc(N4CCNCC4)ccc2-3)cc(OC)c1OC", "target or system": "STK11 (Homo sapiens, UniProt Q15831)", "assay": "kinase activity", "conditions": "1 µM, human enzyme, added: ATP 10 µM", "scale": "relative to: DMSO control", "measurement": "remaining activity", "result": "101%"}
{"SMILES": "N#CCC(=O)Nc1ccc([C@H]2[C@@H](F)[C@@H](F)C[C@@H](F)[C@H]2F)cc1", "assay": "hepatocyte stability", "test system": "cryopreserved rat hepatocytes", "conditions": "1 µM", "measurement": "hepatic clearance", "result": "11 mL/min/kg"}
{"note": "Some of these lines once more:"}
{"SMILES": "O=C(O)c1ccc(Nc2ncc3c(n2)-c2ccc(Cl)cc2C(c2c(F)cccc2F)=NC3)cc1", "target or system": "Abl(m)", "assay": "kinase activity", "conditions": "1 µM", "measurement": "remaining activity", "result": "31%"}
